# Literature values that unrelated publications cite.
# Compare with care: the assays were run in different laboratories. Values joined by “and” are separate records of one study, mostly repeats; a detail may differ. ± gives the spread as reported.
Substance,test,test system,setting,scale,quantity,value
CCOc1ccc2cc(-c3nn(CC4CCN(C)CC4)c4ncnc(N)c34)ccc2n1,,"mouse, plasma","oral, 30 mg/kg",,Cmax,3 to 4 µM
CNCC1CCCCC1(O)c1cccc(O)c1 (stereo not drawn),,"human, urine","oral, dose not given, after tramadol dosing",relative to: dose,urinary excretion,5 to 10%
COc1ccccc1Oc1c(NS(=O)(=O)c2ccc(C(C)(C)C)cc2)nc(-c2ncccn2)nc1OCCO,,"rat, plasma","concentration not given, at LOAEL",,Cmax,~30 µM
COc1cc(N2CCC(N3CCN(C)CC3)CC2)ccc1Nc1ncc(Cl)c(Nc2ccccc2P(C)(C)=O)n1,,patients with cancer,,,highest tolerated dose,240 mg/day
Cc1cc2c(C(C)C)c(O)c(O)c(C=O)c2c(O)c1-c1c(C)cc2c(C(C)C)c(O)c(O)c(C=O)c2c1O,,plasma,concentration not given,,Cmax,1.99 µM
CC1(C)CCC(CN2CCN(c3ccc(C(=O)NS(=O)(=O)c4ccc(NCC5CCOCC5)c([N+](=O)[O-])c4)c(Oc4cnc5[nH]ccc5c4)c3)CC2)=C(c2ccc(Cl)cc2)C1,,human patients,"400 mg once daily, steady state, added: ivosidenib 500 mg once daily 14 days",relative to: with over without ivosidenib,Cmax ratio,0.42
Nc1ccc(Cc2ccc(N)cc2)cc1,item: metabolite,"rat, male and female, bile","50 mg/kg, 45 min",,maximum biliary excretion rate,~9 µg/min/kg
C[C@@H]1O[C@@H](O[C@H]2[C@H](Oc3cc(O)c4c(c3)O[C@H](c3ccc(O)cc3)CC4=O)O[C@H](CO)[C@@H](O)[C@@H]2O)[C@H](O)[C@H](O)[C@H]1O,,rat,oral,,NOAEL,> 1250 mg/kg/day
MVGGVVIA,filtration,"peptide, sodium phosphate buffer",pH 7.4,,solubility,149 ± 33 µM
CCCCCCCCCCCCCCCC(=O)NCCCC[C@H](NC(=O)[C@H](CCCCN)NC(=O)[C@H](CCCCN)NC(=O)[C@@H]1CCCN1C(=O)CNC(=O)[C@H](CC(C)C)NC(=O)[C@H](CC(C)C)NC(=O)[C@H](Cc1ccc(O)cc1)NC(=O)CNC(=O)[C@H](C)NC(=O)[C@H](CO)NC(=O)[C@H](CC(N)=O)NC(=O)[C@H](CC(C)C)NC(=O)[C@@H](NC(=O)[C@H](Cc1c[nH]c2ccccc12)NC(=O)CNC)[C@@H](C)O)C(=O)N[C@@H](CCCCN)C(N)=O,reversed-phase HPLC diphenyl column,,water/acetonitrile gradient with TFA,,HPLC retention time,25.84 ± 0.1 min
Cc1c(COC(=O)[C@@H]2[C@H](/C=C(\Cl)C(F)(F)F)C2(C)C)cccc1-c1ccccc1 (racemic),,rat or mouse,oral,,LD50,545 mg/kg
CC(C)C[C@H](NC(=O)[C@H](Cc1ccccc1)NC(=O)c1cnccn1)B(O)O,,children with refractory leukaemia,intravenous,,maximum tolerated dose,1.3 mg/m²
CNC(=C[N+](=O)[O-])NCCSCc1ccc(CN(C)C)o1,,"human, plasma","concentration not given, median of reported values",,Cmax,2.12 µM
O=C1C=CC(=O)N1CCCCC[18F],,"mouse, INS1 tumour, tumour",[Cys40]-exendin-4 conjugate,,tumour uptake,33.2 ± 4.79 %ID/g
O=C1NC(=O)C(c2ccccc2)(c2ccccc2)N1,,"rabbit, plasma",,,Cmax at LOAEL,~135 µM
Cc1ccc(OCC(=O)N(Cc2cccs2)c2ccn[nH]2)cc1,,"Crl:CD(SD) rats, male and female","oral gavage, 90 days, highest dose tested",,NOAEL,100 mg/kg/day
C[C@@H]1COC(Nc2ccc3ncnc(Nc4ccc(OCc5nccs5)c(Cl)c4)c3c2)=N1,,human,"continuous twice daily, added: docetaxel",,maximum tolerated dose,500 mg
CCC(=O)N1CCC(NC(=O)Nc2ccc(OC(F)(F)F)cc2)CC1,,"mouse, blood","drinking water, 0.02 to 0.2 mg/kg, 8 to 12 days",,Cmax,0.2 to 1.5 µM
CC(=O)[O][Pt]([NH2])([Cl])([Cl])([NH]C1CCCCC1)[O]C(C)=O,,"rats, plasma ultrafiltrate",,,bioavailability,15 to 20%
O=S(=O)(O)C(F)(F)C(F)(F)C(F)(F)C(F)(F)C(F)(F)C(F)(F)C(F)(F)C(F)(F)F,,"juvenile Chinook salmon, whole body wet weight","concentration not given, field-collected",,maximum whole-body concentration,33.7 ng/g
CC[C@H](C)[C@H](NC(=O)[C@H](CCCCN)NC(=O)[C@H](CCCCN)NC(=O)[C@H](Cc1c[nH]cn1)NC(=O)[C@H](CC(C)C)NC(=O)[C@H](CCCCN)NC(=O)[C@H](Cc1ccccc1)NC(C)=O)C(=O)N[C@@H](CC(C)C)C(=O)N[C@@H](CCCCN)C(=O)N[C@H](C(=O)N[C@@H](CC(C)C)C(N)=O)C(C)C,,horse erythrocytes 5 % v/v,150 µM,,hemolysis,0 ± 0.5%
Cn1c(=O)c2[nH]cnc2n(C)c1=O,,water,hydrate,,aqueous solubility,0.83 log mg/mL
CC(C)(c1ccc(O)cc1)c1ccc(O)cc1,item: free compound,"rhesus monkey female, plasma","oral, 0.4 mg/kg",,dose-normalized AUC(0-inf),~34 (nmol·h/mL)/(mmol/kg) and 33.7 (nmol·h/mL)/(mmol/kg)
CC1(C)C(C=C(Cl)Cl)C1C(=O)OC(C#N)c1ccc(F)c(Oc2ccccc2)c1 (stereo not drawn),,rat or mouse,oral,,LD50,900 mg/kg
CCCCCOc1ccc(-c2cc(-c3ccc(C(=O)N[C@H]4C[C@@H](O)[C@@H](O)NC(=O)[C@@H]5[C@@H](O)[C@@H](C)CN5C(=O)[C@H]([C@H](O)CC(N)=O)NC(=O)[C@H]([C@H](O)[C@@H](O)c5ccc(O)c(OS(=O)(=O)O)c5)NC(=O)[C@@H]5C[C@@H](O)CN5C(=O)[C@H]([C@@H](C)O)NC4=O)cc3)no2)cc1,,"human hepatocytes, adult",,,intrinsic plasma clearance,43.4 ± 3 mL/min/kg
CCCCCCCCCCCC[N+](C)(C)C.[Br-],,air-water interface,,,surface partition coefficient,5.5e-07 m
O=c1c(O)c(-c2cc(O)c(O)c(O)c2)oc2cc(O)cc(O)c12,,octanol-water,,,logP,2.94
O=C1NC(=O)C(c2ccccc2)(c2ccccc2)N1,,"human, plasma","total concentration, therapeutic range",,therapeutic plasma concentration,10 to 20 µg/mL
CCCCCOc1ccc(-c2cc(-c3ccc(C(=O)N[C@H]4C[C@@H](O)[C@@H](O)NC(=O)[C@@H]5[C@@H](O)[C@@H](C)CN5C(=O)[C@H]([C@H](O)CC(N)=O)NC(=O)[C@H]([C@H](O)[C@@H](O)c5ccc(O)c(OS(=O)(=O)O)c5)NC(=O)[C@@H]5C[C@@H](O)CN5C(=O)[C@H]([C@@H](C)O)NC4=O)cc3)no2)cc1,,adults with invasive candidiasis,"100 mg daily, steady state",,Cmax,10500 ng/mL
CC1=C(/C=C/C(C)=C/C=C/C(C)=C/C(=O)Nc2ccc(O)cc2)C(C)(C)CCC1,,human adults,1800 mg/m2 per day,,plasma concentration,5 to 7 µM
CC(C)[C@H](C(=O)Nc1ccc(C(=O)NO)cc1)c1ccccc1,,patients with hematologic malignancies,three times weekly,,maximum tolerated dose,40 mg
CN[C@@](C)(C[18F])C(=O)O,,rat (orthotopic brain tumour),60 min,,brain uptake,0.05 ± 0.02 %ID/g
CC(C)(C)C(O)/C=C/c1ccc2c(c1)OCO2 (stereo not drawn),,"human, plasma","total concentration, therapeutic range",,therapeutic plasma concentration,8 to 16 µg/mL
COc1cc(/C=C/C(=O)CC(=O)/C=C/c2ccc(O)c(OC)c2)ccc1O,,mice and rats,"oral, up to 5000 mg/kg, 14 days",,acute toxicity,not toxic
Cc1nc2cccc(OCC(C)(C)C(=O)NC(C)C)c2c(N)c1C(=O)O,,pregnant rat,"oral, maternal toxicity, gestation days 6 to 20, highest dose tested",,NOAEL,1000 mg/kg/day
CC[C@H](C)[C@H](NC(=O)[C@H](CCCCN)NC(=O)[C@H](CCCCN)NC(=O)[C@H](Cc1c[nH]cn1)NC(=O)[C@H](CC(C)C)NC(=O)[C@H](CCCCN)NC(=O)[C@@H](N)CCCCN)C(=O)N[C@@H](CC(C)C)C(=O)N[C@@H](CCCCN)C(=O)N[C@H](C(=O)N[C@@H](CC(C)C)C(N)=O)C(C)C,,horse erythrocytes 5 % v/v,150 µM,,hemolysis,0 ± 1.1%
Clc1ccc(Cl)c(-c2c(Cl)ccc(Cl)c2Cl)c1Cl,substrate,human liver microsomes,,,Km,8.8 µM
O=c1[nH]c(=O)[nH]c(=O)[nH]1,wet-mount and histology,"rat fetuses and neonates, kidney",1000 mg/kg/day to dams,,kidney findings,negative
phosphate,,,,,pKa,6.5
O=C(O)C(F)(F)C(F)(F)C(F)(F)C(F)(F)C(F)(F)C(F)(F)C(F)(F)F,,human,,,elimination half-life,1.5 to 10 years
CN[C@H]1C(=O)N[C@@H]2Cc3ccc(cc3)Oc3cc4cc(c3O[C@@H]3O[C@H](C(=O)O)[C@@H](O)[C@H](O)[C@H]3NC(=O)CCCCCCCCC(C)C)Oc3ccc(cc3Cl)[C@@H](O)[C@@H]3NC(=O)[C@H](NC(=O)[C@@H]4NC(=O)[C@@H](NC2=O)c2cc(cc(O)c2Cl)Oc2cc1ccc2O)c1ccc(O)c(c1)-c1c(O[C@H]2O[C@H](CO)[C@@H](O)[C@H](O)[C@@H]2O)cc(O)cc1[C@@H](C(=O)NCCCN(C)C)NC3=O,,healthy humans,"1000 mg single dose, mean",,terminal half-life,14.4 days
N[C@@H](Cc1c[nH]c2ccccc12)C(=O)NO,,,,,pKa,8

# Some of these lines once more:
Substance,test,test system,setting,scale,quantity,value
Cc1cc2c(C(C)C)c(O)c(O)c(C=O)c2c(O)c1-c1c(C)cc2c(C(C)C)c(O)c(O)c(C=O)c2c1O,,plasma,concentration not given,,Cmax,1.99 µM
Cc1ccc(OCC(=O)N(Cc2cccs2)c2ccn[nH]2)cc1,,"Crl:CD(SD) rats, male and female","oral gavage, 90 days, highest dose tested",,NOAEL,100 mg/kg/day
CN[C@H]1C(=O)N[C@@H]2Cc3ccc(cc3)Oc3cc4cc(c3O[C@@H]3O[C@H](C(=O)O)[C@@H](O)[C@H](O)[C@H]3NC(=O)CCCCCCCCC(C)C)Oc3ccc(cc3Cl)[C@@H](O)[C@@H]3NC(=O)[C@H](NC(=O)[C@@H]4NC(=O)[C@@H](NC2=O)c2cc(cc(O)c2Cl)Oc2cc1ccc2O)c1ccc(O)c(c1)-c1c(O[C@H]2O[C@H](CO)[C@@H](O)[C@H](O)[C@@H]2O)cc(O)cc1[C@@H](C(=O)NCCCN(C)C)NC3=O,,healthy humans,"1000 mg single dose, mean",,terminal half-life,14.4 days
CCC(=O)N1CCC(NC(=O)Nc2ccc(OC(F)(F)F)cc2)CC1,,"mouse, blood","drinking water, 0.02 to 0.2 mg/kg, 8 to 12 days",,Cmax,0.2 to 1.5 µM
CC[C@H](C)[C@H](NC(=O)[C@H](CCCCN)NC(=O)[C@H](CCCCN)NC(=O)[C@H](Cc1c[nH]cn1)NC(=O)[C@H](CC(C)C)NC(=O)[C@H](CCCCN)NC(=O)[C@@H](N)CCCCN)C(=O)N[C@@H](CC(C)C)C(=O)N[C@@H](CCCCN)C(=O)N[C@H](C(=O)N[C@@H](CC(C)C)C(N)=O)C(C)C,,horse erythrocytes 5 % v/v,150 µM,,hemolysis,0 ± 1.1%
